Results gathered from unrelated publications.
Numbered parts are unrelated; each lists some results of a single study. Positions count from the first letter of the parent shown.

Block 1
Target: RNA binding protein fox-1 homolog 2, RRM domain, GST-SBP tag (RBFOX2, Homo sapiens, UniProt O43251-10, residues 100-194)
Technique: RNA Bind-n-Seq
Molecule type: RNA
Medium: in vitro
Tested at: 365 nM
Setting: natural RNA segment, single round, ends assumed
Baseline: no-protein control
Direction: higher = stronger binding
Constant ends, left off below: GGGAGUUCUACAGUCCGACGAUC … UGGAAUUCUCGGGUGCCAA
Construct (chain): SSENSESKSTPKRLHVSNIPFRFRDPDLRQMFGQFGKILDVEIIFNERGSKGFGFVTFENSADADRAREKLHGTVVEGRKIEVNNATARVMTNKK
Sequence | RBNS enrichment (R)
AGGGAGGCCCCUGGGUAUUGUCCUCCUACAAGGAAGAUCCUCUUUGUUUGUUCAAAGGACCAGUUUUCCUAGGCCAAAGAAGUCUCUUCCCCAUGUUAGUCCUAUGCCUU | 0.441
UUGCCGAUCUUUUAGAAAUACCUUUUCUGGAGAAAAAAAAAUCCACAUGAAGUGCAAUAAGCUUAUAAAGCUAAGUAGUUAUUAAUAUUUCUAUUAACAUGAUACAAAGG | 0.265
GAGCACCUGAAGACUAAUGUUUUACACUGGAUUGAGAUCUCAUGGAAAAUGAAACAUUCUUUUUCUGGAGAAGUUUACAUGCCCAUUGUUGGUCACCUCUUUACUGUAAA | 0.453
AUGACUUUGAGCCAUCUCCAGAGAAGGAAGUGAAAAUUGUGGCUCCCCAGUCGAUUGGGACACAGUCUCUCUUUGUCUAGGUAACACAUGGUGACACAUAGCAUUGAACU | 0.336
UCUUAUUUAAUUGUCCUGUUCCUUCCCACUCCCCGCCUCCUAGGAUGUUAGCCCAAGCUCAGGGUAGGCCCAGGGGGCUGGGAGAAAUGAAGCCACCCAUGGGGACUGGG | 0.658
UAUUAUACAUGUAUAUGCUGGGUCCUUUUUCAGAAACUCUUUUCUUACCUGAGAGUUGUCUUGUUUUCUGGGCUGUUUUUAACUGAGGAAAAAAAAAAUGCUUUCCUGCC | 2.32
GCUGCUCCGAGUCCUCCCCUGCAACCAUGAGUUCCACACCAAGUGUGUUGACAAGUGGUUGAAGGCCAACCGGACGUGUCCCAUCUGCCGGGCCGACGCCUCCGAGGUGC | 0.24
AGAAAAAUGACCUGACCCUGUAGAGAGAACACAGUGUGAAUGUUUCCCCUCGUGUGAGCCCAGCCUGUGGUCUUCUCCGUACCCGCAACGUGGUCAUCUGUGCCCGUGAC | 0.35

Block 2
Target: Ras GTPase-activating protein-binding protein 1, full length (G3BP1, Homo sapiens, UniProt Q13283)
Chain of UniProt Q13283 (whole entry, looked up): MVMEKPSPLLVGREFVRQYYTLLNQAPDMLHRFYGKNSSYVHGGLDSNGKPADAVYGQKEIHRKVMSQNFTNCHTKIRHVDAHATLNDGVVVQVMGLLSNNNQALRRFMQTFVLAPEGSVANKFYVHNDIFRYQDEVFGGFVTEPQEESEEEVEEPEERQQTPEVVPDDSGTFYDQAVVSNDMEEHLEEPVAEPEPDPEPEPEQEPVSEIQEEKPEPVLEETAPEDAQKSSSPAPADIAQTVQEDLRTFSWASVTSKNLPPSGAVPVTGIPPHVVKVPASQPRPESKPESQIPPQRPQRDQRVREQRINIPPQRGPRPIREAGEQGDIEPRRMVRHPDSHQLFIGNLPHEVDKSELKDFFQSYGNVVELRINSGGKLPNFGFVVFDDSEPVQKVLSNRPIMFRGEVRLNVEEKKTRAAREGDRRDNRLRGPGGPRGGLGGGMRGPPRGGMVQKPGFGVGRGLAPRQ
Technique: RNA Bind-n-Seq
Molecule type: RNA
Medium: in vitro
Tested at: 200 nM
Setting: whole 134-nt RNA, ends assumed
Added: 150 mM KCl
Baseline: input library
Direction: higher = stronger binding
Constant ends, left off below: GGGAGUUCUACAGUCCGACGAUC … UGGAAUUCUCGGGUGUCAAGG
Sequence | log2 enrichment
CCUCAAGUCCUGUGCUACACAUCGUAUGUACCGAAUCGGGGCGGGCGGCGGGGAAAGUAUUAUGUUACGCCGUUCGGAUCUGCACUUCCA | 0.878
UGGGAGGUGGAUUUUGUUUAUUUUUUUAGCUCAUUUCCAGGGGUGGGAAUUUUUUUUUAAUAUGUGUCAUGAAUAAAGUUGUUUUUGAAG | 0.651
CUGUGCUACACAUCGUAUGUACCGAAUCGGGUUUUUUUGGGUUUUUUUGGGUUUUUUUGGGAAAGUAUUAUGUUACGCCGUUCGGAUCUG | -1
GUCCUGUGCUACACAUCGUAUGUACCGAAUCGGGGUUUGGGGUUUGGGGUUUUUGGGGAAAGUAUUAUGUUACGCCGUUCGGAUCUGCAC | 0.852
AAGUCCUGUGCUACACAUCGUAUGUACCGAAUCGGGCCCCGGGGCCCCGGGCCCCGGAAAGUAUUAUGUUACGCCGUUCGGAUCUGCACU | 0.374
UAGAUAUCCAUAGAAAAGAGAACUCUGGAGCUGCAGAGAAGCCUGUCACCAUCCAUGCCACCCCAGAGGGGACUUCUGAAGCAUGCCGCA | -0.524
UGGCCCUGGUGGCAUGCGGGGAGGAACAGGUGGCCUCAUGGAUCGUGGUGGUCCCGGUGGAAUGUUCAGAGGUGGCCGUGGUGGAGACAG | 0.193
AAGUCCUGUGCUACACAUCGUAUGUACCGAAUCGGUUUUGGGGUUUUGGUUUUGGGAAAGUAUUAUGUUACGCCGUUCGGAUCUGCACUU | -1.1
CAAGUCCUGUGCUACACAUCGUAUGUACCGAAUCGGUUUGGUUUGGUUUUUUUGGAAAGUAUUAUGUUACGCCGUUCGGAUCUGCACUUC | -0.729

Block 3
Target: Centromere-binding protein 1, full length, His-tagged (CBF1, Saccharomyces cerevisiae, UniProt P17106, residues 1-351)
Chain of UniProt P17106 (whole entry, looked up): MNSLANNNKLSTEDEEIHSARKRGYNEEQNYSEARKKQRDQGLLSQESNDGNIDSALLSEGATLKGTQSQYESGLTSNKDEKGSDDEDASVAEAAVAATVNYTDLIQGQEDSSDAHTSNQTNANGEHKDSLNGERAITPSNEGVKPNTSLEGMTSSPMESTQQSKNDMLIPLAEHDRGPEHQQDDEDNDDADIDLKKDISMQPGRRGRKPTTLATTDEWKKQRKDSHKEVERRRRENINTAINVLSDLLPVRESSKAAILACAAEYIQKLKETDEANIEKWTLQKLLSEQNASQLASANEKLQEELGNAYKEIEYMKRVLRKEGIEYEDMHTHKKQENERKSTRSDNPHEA
Technique: competition protein-binding microarray
Molecule type: double-stranded DNA, one strand shown
Medium: in vitro
Tested at: 2 µM
Setting: whole 60-bp probe, lowest competitor level
Added: Pho4 competitor, 0.05 µM
Direction: higher = stronger binding
Constant ends, left off below: … GTCTTGATTCGCTTGACGCTGCTG
Sequence | fluorescence intensity
CTTTCCCGATCTTGCATTGTGGGTGTAGCACATTTG | 71.1 a.u.
GTCTTGTCTCATTGTCTGGTGGGTGTCCCCACTTCA | 72.1 a.u.
CCCAAAGGGATGGGATACATGACAACAACAAGCAAG | 70.2 a.u.
TAACTCAGATTGACGCTCGTGATGGCTTCTCCACTG | 156 a.u.
CGGGGTTAAGTTTGAAGCGTGGGTGGCTTGCAGCAG | 61.6 a.u.
CGTCCTAGCGATTGAAGCGTGGGTGCCATGAGGAAG | 82.7 a.u.
AGCACTGCCTCCTGTCACCTGTTTCGGCATGGCACA | 124 a.u.
TGCTTTTTTCCAAAACACGTGGCAATGACTTTTGAA | 2530 a.u.
CATACCCAACCTTGTCACCGCACTTAAGATATTTGT | 69.4 a.u.
CTTTCCCGATCTTTTCACGTGCTTTTAGCACATTTG | 1120 a.u.
AATGTAGCTCGTAAGCGCCTGATCCAGTAAGCCAAA | 72.1 a.u.
CGTCCTAGTGATTGCACTGTGGGTGCCATGAGGAAG | 78.8 a.u.
AGTAGCTAAGCGAGTCACGGGACTAAAAGGTAAAAA | 3070 a.u.
AAAGCGGTAATTTGTACAGTGGGTGCAGATATCTAT | 86.1 a.u.
GGCAATTTGTATTGCCATGTGCTGCAGGCATGTCTG | 131 a.u.
CTAACGAAGGTTTGATAAGTGGGTGACAAGCCAAGT | 64.3 a.u.
GTCATAGACAGAACACACGTGGTGAGGAAAAAGGAC | 924 a.u.
AAATTACTAAGTTGATAGGTGGGTGACGCCGTATGA | 79.7 a.u.
CTAACGAAGGTTTGATTCGTGGGTGACAAGCCAAGT | 68 a.u.

Block 4
Target: CCNE1, cyclin fold, Cln2 fusion (human)
Technique: yeast growth competition, sequencing
Medium: yeast
Setting: weak parent motif
Baseline: not given
Direction: higher = stronger binding
Starting sequence: CDC6 docking peptide (human); TLKGRRLVFDNQL
Substitution | normalised enrichment score
R5E | 0.171
N11H | 0.118
R5C | 0.267
Q12T | 0.763
T1A | 0.0123
R5W | 0.0744
L2Y | 1.83
V8M | -0.0255
Q12C | 0.663
K3Q | 0.316
N11Y | 1.41
R6C | 0.243
T1K | 0.921
L2S | -0.282
R5F | 0.726
N11P | 0.636
V8P | 0.0235
L13A | 0.326
L2F | -0.437
K3N | -0.0099
R5S | -0.245
L7I | 0.333
D10L | 0.103
F9E | 0.528
N11L | 0.452
